Experimental data pooled from the literature.
Numbered parts are unrelated; each lists some results of a single study. Changes are numbered by the printed parent chain.

Sample 1
Target: vanadate, free oxyanion
Technique: microfluidic competitive inhibition
Medium: in vitro, cell-free expressed
Tested at: not given
Notes: derived from inhibition constants, unchanged parent 676 nM
Reading: lower = stronger binding
Starting sequence: PafA, mature enzyme, eGFP fusion (Elizabethkingia meningoseptica, UniProt Q9KJX5); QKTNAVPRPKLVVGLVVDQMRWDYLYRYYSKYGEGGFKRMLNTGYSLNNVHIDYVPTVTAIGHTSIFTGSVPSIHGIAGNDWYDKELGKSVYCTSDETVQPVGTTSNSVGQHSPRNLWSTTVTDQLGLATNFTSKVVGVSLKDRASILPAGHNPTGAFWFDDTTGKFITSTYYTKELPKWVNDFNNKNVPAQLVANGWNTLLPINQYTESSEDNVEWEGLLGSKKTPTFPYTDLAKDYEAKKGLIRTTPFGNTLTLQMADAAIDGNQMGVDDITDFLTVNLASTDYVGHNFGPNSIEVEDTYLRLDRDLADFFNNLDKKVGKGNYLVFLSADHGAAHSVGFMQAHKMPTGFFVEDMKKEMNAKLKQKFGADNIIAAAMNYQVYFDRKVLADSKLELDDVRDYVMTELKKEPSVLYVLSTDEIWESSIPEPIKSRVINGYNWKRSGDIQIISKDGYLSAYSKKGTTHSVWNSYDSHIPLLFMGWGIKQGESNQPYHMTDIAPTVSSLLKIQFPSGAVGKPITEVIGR
Variant	oxyanion analog dissociation constant [µM]
L407V	0.75
V194G	0.47
I520G	1.77

Sample 2
Target: CCNE2, cyclin fold, Cln2 fusion (human)
Technique: yeast growth competition, sequencing
Medium: yeast
Notes: strong parent motif
Relative to: not given
Reading: higher = stronger binding
Starting sequence: viral docking peptide; TSVRRALFTGGSD
Variant	normalised enrichment score
TSYRRALFTGGSD [V3Y]	2.03
TSFRRALFTGGSD [V3F]	1.52
TSVRRALFTGGYD [S12Y]	4.06
TSKRRALFTGGSD [V3K]	0.633
TSTRRALFTGGSD [V3T]	0.95
TSIRRALFTGGSD [V3I]	1.32
TLVRRALFTGGSD [S2L]	2.13
TSVRRADFTGGSD [L7D]	-0.0709
TVVRRALFTGGSD [S2V]	1.64
TSVRRALFQGGSD [T9Q]	4.2
TSVQRALFTGGSD [R4Q]	0.672
TSVRRALFHGGSD [T9H]	2.54
TSVYRALFTGGSD [R4Y]	0.604
TSVRRALFTGGND [S12N]	4.28
TSVRRALFTGPSD [G11P]	4.42

Sample 3
Target: Prothrombin, mature alpha-thrombin (F2, Homo sapiens, UniProt P00734)
Technique: aptamer microarray, sandwich
Form: DNA with 2'F-ANA
Medium: in vitro
Tested at: 200 nM
Notes: whole 15-mer aptamer, many near background
Added: Cy3 exosite-II aptamer, 400 nM
Reading: higher = stronger binding
Oligonucleotide: GGTTGGTGTGGTTGG
Modification	mean fluorescence intensity
2'F-ANA at 6 8 9 11 12 13 15	555 a.u.
2'F-ANA at 2 5 9 12 14	50.2 a.u.
2'F-ANA at 1 3 6 8 9 11 12 15	406 a.u.
2'F-ANA at 1 2 3 4 5 6 7 8 11	58.1 a.u.
2'F-ANA at 3 5 6 7 8 9	142 a.u.
2'F-ANA at 2 3 4 7 14 15	365 a.u.
2'F-ANA at 1 6 7 9 15	169 a.u.
2'F-ANA at 3 5 6 7 8 9 11 13 14 15	50.5 a.u.

Sample 4
Target: Interferon regulatory factor 5, full length, phosphomimetic (IRF5, Homo sapiens, UniProt Q13568-2, residues 1-514, S451D/S453D/S456D/S462D)
Technique: protein-binding microarray
Form: double-stranded DNA, one strand shown
Medium: in vitro
Tested at: 940 nM top
Notes: 60-bp whole probe
Added: salmon DNA 0.4 mg/ml
Relative to: random background probes
Reading: higher = stronger binding
Constant ends, left off below: GCCTAGCAC … GTGCTAGGTCTTGATTCGCTTGACGCTGCTG
Oligonucleotide	fitted relative affinity [z-score]
TTAGGTTTCCTTCTCCTTTA	2.21
TCAGGACTGGGTATCGGTTA	3.87
TTAGACTTCAGTCTCGATTA	2.85
CTCATTCTCTGTTTATGTCT	3.38
GACGATTTCAGACAGGAGAC	-0.313
CCGCTTTTTTTTTTTTTTTT	1.28
TCAATTATATATTTATGACT	0.178
TTAGGTATCGGAATGGGTTA	4.48

A few entries again (sample 2):
Variant	normalised enrichment score
TSIRRALFTGGSD [V3I]	1.32
TLVRRALFTGGSD [S2L]	2.13
TSVRRALFTGGYD [S12Y]	4.06
